Measured values from different studies.
Lines come from different studies, so protocols differ. Several values in a cell are separate wells, animals, samples, runs or records. ± gives the spread as reported.
B1: interferon gamma; sequence looked up; chain QDPYVKEAENLKKYFNAGHSDVADNGTLFLGILKNWKEESDRKIMQSQIVSFYFKLFKNFKDDQSIQKSVETIKEDMNVKFFNSNKKKRDDFEKLTNYSVTDLNVQRKAIHELIQVMAELSPAAKTGKRKRSQMLFRG
B2: recombinant human GDNF; sequence looked up; chain SPDKQMAVLPRRERNRQAAAANPENSRGKGRRGQRGKNRGCVLTAIHLNVTDLGLGYETKEELIFRYCSGSCDAAETTYDKILKNLSRNRRLVSDKVGQACCRPIAFDDDLSFLDDNLVYHILRKHSAKRCGCI
B3: human corneodesmosin; sequence looked up; chain KSIGTFSDPCKDPTRITSPNDPCLTGKGDSSGFSSYSGSSSSGSSISSARSSGGGSSGSSSGSSIAQGGSAGSFKPGTGYSQVSYSSGSGSSLQGASGSSQLGSSSSHSGNSGSHSGSSSSHSSSSSSFQFSSSSFQVGNGSALPTNDNSYRGILNPSQPGQSSSSSQTFGVSSSGQSVSSNQRPCSSDIPDSPCSGGPIVSHSGPYIPSSHSVSGGQRPVVVVVDQHGSGAPGVVQGPPCSNGGLPGKPCPPITSVDKSYGGYEVVGGSSDSYLVPGMTYSKGKIYPVGYFTKENPVKGSPGVPSFAAGPPISEGKYFSSNPIIPSQSAASSAIAFQPVGTGGVQLCGGGSTGSKGPCSPSSSRVPSSSSISSSSGLPYHPCGSASQSPCSPPGTGSFSSSSSSQSSGKIILQPCGSKSSSSGHPCMSVSSLTLTGGPDGSPHPDPSAGAKPCGSSSAGKIPCRSIRDILAQVKPLGPQLADPEVFLPQGELLNSP

Molecule = B1 (interferon gamma); assay = proteinuria inducer; system = FVB mice; setting = dose not given, 0 h; endpoint = urine albumin/creatinine ratio; value = 47.9 and 15.9 and 16.1 and 33.4 and 21.5 and 17.4 and 17.8 and 16.9
Molecule = YGRKKRRQRRRTPQRSGSISNYRSCQR; system = peptide, db/db mice, primary hepatocytes; setting = intraperitoneal, 15 nmol/g/day, 6 days; endpoint = shortened mitochondria; value = 85.2%
Molecule = cotadutide; assay = metabolomics, measured: hepatic methionine; system = ob/ob mice on AMLN diet, NASH model, liver; setting = dose not given; endpoint = metabolite level; value = 1.05 ± 0.08 scaled intensity
Molecule = liraglutide; system = Wistar rat, female, diet-induced obese, liver tissue; setting = subcutaneous, dose not given, after 4 weeks treatment; endpoint = liver cholesterol; value = 3.1 ± 0.6 mg/dL
Molecule = RQLRNWTSAEGLLRVHARL; assay = Luminex, measured: IFN-γ; system = peptide, NOD-DR3 mice, peptide-immunized, splenocytes; setting = dose not given, 48 h; endpoint = interferon gamma secretion; value = > 1000 pg/mL
Molecule = insulin degludec; assay = euglycemic clamp; system = healthy human volunteers, C-peptide reduction below 50%, serum; setting = subcutaneous, 0.4 IU/kg; scale = reference: baseline; endpoint = C-peptide reduction; value = 35.2 ± 12.1%
Molecule = B2 (recombinant human GDNF); assay = CNN cell counting, measured: tyrosine hydroxylase; system = rat, 6-OHDA lesion model, substantia nigra pars compacta, intact side; setting = 3 µg/24 h; endpoint = TH-immunoreactive cell count; value = 1340 ± 152
Molecule = human CCT1; tested on = CYB5R4 knockout human cells; assay = PP4 interaction, 3xFLAG-PP4C IP-MS; setting = concentration not given; scale = reference: CYB5R4 KO over parental; endpoint = log2 fold change; value = 0.63
Molecule = heparin sodium; system = human; setting = intravenous infusion, 8 IU/kg/h, day 1 to 6; scale = reference: baseline; endpoint = AUEC of aPTT ratio; value = 149
Molecule = maraviroc; assay = Western blot; system = HIV-infected mice, frontal cortex; setting = i.p., 120 mg/kg twice daily, 3 weeks post infection; scale = reference: HIV-infected untreated mice, decrease; endpoint = protein level; value = 1.95 fold
Molecule = EKVPESKVIFDANAPVAVRSKVPDSEF; assay = Luminex, measured: IFN-γ; system = peptide, NOD-DR3 mice, peptide-immunized, splenocytes; setting = dose not given, 48 h; endpoint = interferon gamma secretion; value = > 1000 pg/mL
Molecule = GWTLNSAGYLLGPHAVGNHRSFSDKNGLTS-NH2 (C-amide); assay = RT-qPCR, measured: Ocln; system = peptide, mouse, DSS-induced colitis, colon; setting = ip, 3 µM, 3% DSS, unit not given; scale = reference: Gapdh; endpoint = mRNA level; value = 1.48 and 2.3 and 3 and 1.62
Molecule = semaglutide; system = Wistar rat, male, diet-induced obese, blood, fasted; setting = subcutaneous, dose not given, after 10 weeks treatment; endpoint = serum cholesterol; value = 89 ± 6 mg/dL
Molecule = Pam2CSK4; system = APP/PS1 mouse, cortex; setting = local injection, dose not given, unit not given; scale = reference: injected over adjacent side; endpoint = OC-positive amyloid level; value = 0.776 and 1.48 and 0.96
Molecule = KCNTATCATQRLANFLVHSSNNFGPILPPTNVGSNTY (Pramlintide; sequence looked up); assay = ELISA; system = peptide, Tg2576 mouse, CSF; setting = intraperitoneal, dose not given, 10 weeks daily; endpoint = Aβ1-42 level; value = 46.5 ± 2.51 pg/mL
Molecule = somatropin; system = Children, Prader-Willi syndrome; setting = dose not given, 6 months; scale = reference: baseline; endpoint = liver stiffness; value = no effect
Molecule = B3 (human corneodesmosin); tested on = CYB5R4 knockout human cells; assay = PP4 interaction, 3xFLAG-PP4C IP-MS; setting = concentration not given; scale = reference: CYB5R4 KO over parental; endpoint = log2 fold change; value = 0.0333
Molecule = rifaximin; assay = cell-free protein synthesis, inhibitor; system = Escherichia coli S30 extract; endpoint = IC50; value = 24 ± 6 nM
Molecule = difelikefalin; system = Japanese haemodialysis patients with pruritus; setting = intravenous, 0.25 µg/kg, 8 weeks; endpoint = PGIC very much worse; value = 0%

A few entries again:
Molecule = insulin degludec; assay = euglycemic clamp; system = healthy human volunteers, C-peptide reduction below 50%, serum; setting = subcutaneous, 0.4 IU/kg; scale = reference: baseline; endpoint = C-peptide reduction; value = 35.2 ± 12.1%
Molecule = maraviroc; assay = Western blot; system = HIV-infected mice, frontal cortex; setting = i.p., 120 mg/kg twice daily, 3 weeks post infection; scale = reference: HIV-infected untreated mice, decrease; endpoint = protein level; value = 1.95 fold
